Measurements collected from several papers.
“And” joins repeats or separate records; there may be more than shown. ± marks the error that the study gave.
Chain of UniProt P35462 (whole entry, looked up): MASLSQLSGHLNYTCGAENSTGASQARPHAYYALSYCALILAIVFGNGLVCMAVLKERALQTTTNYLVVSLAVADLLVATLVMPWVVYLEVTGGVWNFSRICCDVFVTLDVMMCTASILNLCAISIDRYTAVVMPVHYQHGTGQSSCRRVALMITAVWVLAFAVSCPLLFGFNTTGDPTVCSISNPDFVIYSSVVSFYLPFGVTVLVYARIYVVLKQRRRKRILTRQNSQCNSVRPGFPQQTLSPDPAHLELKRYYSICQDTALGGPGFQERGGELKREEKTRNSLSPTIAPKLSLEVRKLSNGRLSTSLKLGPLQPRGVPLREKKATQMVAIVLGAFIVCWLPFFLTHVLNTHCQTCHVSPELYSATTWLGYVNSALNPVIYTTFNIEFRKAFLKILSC

For `NS(=O)(=O)OC[C@H]1C[C@@H](Nc2ccnc3cc(-c4cccc(SC(F)(F)F)c4)nn23)[C@H](O)[C@@H]1O`, the EC50 was 0.285 µM (BRD4-HiBiT cells; BRD4 degradation rescue, inhibitor; 8 h, added: dBET6 500 nM).
With `CCn1cc(-c2cc(Cn3ccnc3)cc3c2CCN([C@H](c2cc(OC)ccn2)C2CC2)C3=O)c(C(F)(F)F)n1` the EC50 was > 30 µM (CA46; cell growth, inhibitor; 120 h).
With `C=C[C@@]1(C)CC(=O)[C@]2(O)[C@@]3(C)[C@@H](O)CCC(C)(C)[C@@H]3[C@H](O)[C@H](OC(C)=O)[C@@]2(C)O1` the viability was 34.2% and 40.8% (MDA-MB-231 BAX/BAK siRNA knockdown; CellTiter-Glo; concentration not given; reference: normalised luminescence).
`Cc1cnc(NC2CCOCC2)nc1-n1cnc(C(=O)NC(CN)c2cc(F)cc(Cl)c2)c1` (stereo not shown): “G2 phase cells” 11.8% (MINO; flow cytometry; 1 µM, 24 h).
Under “log2 fold change”, `Cn1cc(-c2ccc(-c3cncc(Cl)c3N3CCC4(CCNC4=O)CC3)cc2)cn1` is recorded as -2.54 (COLO 205; gene expression, microarray, item: SLC2A4 (GLUT4) mRNA; concentration not given, 6 h; reference: untreated cells).
For `O=C(CCc1cc(C(=O)c2ccc(OC3CCCC3)cc2O)ccc1OCc1ccc2c(O)noc2c1)NCCOCCOCCOCCOCCOCCOCCNc1cccc2c1C(=O)N(C1CCC(=O)NC1=O)C2=O` (stereo not shown), mRNA level read “inhibited” (FaDu cells; RT-qPCR, item: FOSL1 target genes SNAI2, BMI1; concentration not given).
`CCCC1=C(C(=O)OCC)C(c2ccccc2Cl)C2=C(CC(c3ccc(OC)c(OC)c3)OC2=O)N1` (mixture of isomers) gave an EC50 of > 20 µM (J774.A1; cytotoxicity).
`CCCCc1oc2ccc(NS(C)(=O)=O)cc2c1C(=O)c1ccc(OCCCN(CCCC)CCCC)cc1` has a fold change of 5.2 fold (human embryonic stem cell aggregates; mRNA level, microarray, item: MXRA8; 0.5 µM, 120 h; reference: untreated, down-regulated).
`O=C(/C=C/C=C/C=C/C1CCCCC1)NC1=C[C@@](O)(/C=C/C=C/C=C/C(=O)NC2=C(O)CCC2=O)[C@@H]2O[C@@H]2C1=O` has a GI50 of 19.1 µM (KYSE-510; cell growth, CellTiter-Glo; 78 h).
`COc1cnc2cccc(N3CCc4c(cc(Cn5ccnc5C)cc4-c4cn(C)nc4C(F)(F)F)C3=O)c2c1` gave an EC50 of > 30 µM (AGS; cell growth, inhibitor; 120 h).
For `CC(=O)Nc1cccc(-n2c(=O)n(C3CC3)c(=O)c3c(Nc4ccc(I)cc4F)n(C)c(=O)c(C)c32)c1`, “average fractional effect” read 71% (LoVo (KRAS G13D); cell viability, resazurin; 100.00 nM, 72 h; reference: DMSO).
The viability of `O=P(O)(O)C(O)(Cn1ccnc1)P(=O)(O)O` is reported as 101 ± 2% (hFOB 1.19; AlamarBlue; 1.9 µM, 24 h; reference: control).
For `COc1ccc(NC(=O)CSc2nnc(-c3ccncc3)[nH]2)cc1`, the Kd was > 100 µM (Cyclin-dependent kinase 2, with cyclin A (CDK2, Homo sapiens, UniProt P24941)).
For `CCn1cc(-c2cc(Cn3ccoc3=N)cc3c2CCN([C@@H](C)c2cc(OC)ccn2)C3=O)c(C(F)(F)F)n1`, the EC50 was 12.8 µM (HCC1833; cell growth; 120 h).
With `Cc1nn(-c2nc3c(F)cc(F)cc3s2)c(O)c1C(c1ccccc1C(=O)O)c1c(C)nn(-c2nc3c(F)cc(F)cc3s2)c1O` the inhibition was 24.8% and 30.8% and 21.2% (THP1-Dual; IFN luciferase reporter; 20 µM, added: HT-DNA).
Under “phosphorylated protein ratio”, `CC/C(=N\NC(=O)NCc1cccc(O)c1)c1ccc(O)c(C)c1O` is recorded as 0.82 ± 0.64 (SK-OV-3; Western blot, item: phospho-YAP; 1 µM, 1 h, 2D culture; reference: total YAP).
Under “number of downregulated genes”, `Cn1cc(Nc2nccc(-c3ccc4c(c3)CN(C3COC3)CC[C@H]4NC(=O)c3cn(C(C)(C)C)nn3)n2)cn1` is recorded as 305 (human B cells; 100 nM, 64 h, stimulation-upregulated genes, added: CpG ODN2006).
With `O=C(Cn1cnc([N+](=O)[O-])n1)Nc1ccc(N2CCOCC2)c(Cl)c1` the Kd was > 100 µM (CDK2 (Homo sapiens, UniProt P24941); binding).
For `Cc1[nH]c(C)c(S(=O)(=O)Nc2ccc(C(F)(F)F)c(Cl)c2)c1C(=O)N1CCC(C)(C)C1`, the IC50 was > 100 µM (DRD3 (Homo sapiens, UniProt P35462); β-arrestin recruitment, antagonist, PathHunter; added: dopamine EC80).
